Measurements from different studies.
A part holds a random share of what one study measured. Changes are numbered by the printed parent chain.

Sample 1
Target: JUND, bZIP domain (human)
Method: DHFR protein complementation
Matrix: yeast
Notes: single substitutions, most at no-binding floor
Reference: wild-type JUN-FOS pair
Reading: higher = stronger binding
Quantity: binding fitness
Starting sequence: JUN, bZIP domain (human); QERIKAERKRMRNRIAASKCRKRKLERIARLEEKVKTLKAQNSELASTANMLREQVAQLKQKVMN; partner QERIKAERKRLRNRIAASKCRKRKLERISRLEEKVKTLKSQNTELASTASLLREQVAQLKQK
A40C: -1.03 natural log
Q55L: -1.01 natural log
A57G: -0.971 natural log
K36F: -1.09 natural log
Q55A: -1.1 natural log
A29T: -0.859 natural log
T48D: -0.895 natural log
T48A: -0.791 natural log
I28V: -0.902 natural log
K34Q: -0.41 natural log
K39A: -0.843 natural log
L59T: -0.807 natural log
T37I: -0.563 natural log
A29I: -0.882 natural log
S43T: -0.585 natural log
R30C: -0.823 natural log
E54N: -0.929 natural log
A29L: -0.999 natural log
K39Y: -1.06 natural log
Q41D: -1.18 natural log

Sample 2
Organism: Saccharomyces cerevisiae
Observed: peptide binding
Method: yeast competitive growth sequencing
Form: peptide
Strain: cyclin-Cln2 fusion strain
Tested at: concentration not given
Notes: Cln2 background subtracted
Reading: direction not given
Quantity: binding score
KLLPRKLQFFCDP: 0.852
MDASRQLMLNEEQ: 0.103
VLLKRLQDVVSERANH: 0.181
GPVKLEFDVSDGAT: -0.0241
SDSTVTKLDFDLEP: 0.357
PKNAKRNLSSEFAN: 0.835
APPRKALFTYPKG: 0.586
EPKTLFLGAGDFQF: 0.675
TSSAQRRLEIPSGGAD: 1.02
RKLDLEGIGR: 1.65
PHKTFRKLRLFDTPHT: -0.41
ARKRLELGNLGNPQ: -0.722

Sample 3
Target: ABI1, truncated, D143A, DHFR fusion (Arabidopsis thaliana)
Method: DHFR PCA, deep sequencing
Matrix: yeast
Notes: methotrexate growth selection, single substitutions
Added: (+)-ABA 0.0091 µM
Reference: wild-type fitted maximum
Reading: higher = stronger binding
Quantity: relative binding score
Starting sequence: PYL1, truncated, DHFR fusion (Arabidopsis thaliana); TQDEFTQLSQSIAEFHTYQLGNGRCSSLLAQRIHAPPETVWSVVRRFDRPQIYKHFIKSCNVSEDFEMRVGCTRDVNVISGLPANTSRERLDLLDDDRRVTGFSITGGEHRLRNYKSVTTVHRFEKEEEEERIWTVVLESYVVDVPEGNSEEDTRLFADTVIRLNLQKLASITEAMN
L91G: 2.83%
I172A: -2.29%
Q51S: -8.85%
S150T: 45.7%
E4K: 0.171%
S140M: 1.51%
A84M: 59.8%
L169A: -2.05%
P83C: 10.1%
S171T: 40.5%
T17M: 5.56%
V137S: -2%
V121W: 1.06%
R45M: -5.71%
S171N: 31.8%
Q167R: 18.4%
K116F: -7.36%
I162P: -3.31%
R24M: 12.5%
G23M: 0.889%
G107K: 4.82%
P36Q: 9.34%
E139M: 1.17%
N77E: 67.3%
D48R: -0.474%

Sample 4
Target: Histone acetyltransferase KAT6A, both winged helices, GST fusion (KAT6A, Homo sapiens, UniProt Q92794, residues 1-181)
Method: protein binding microarray
Form: double-stranded DNA, one strand shown
Matrix: in vitro
Tested at: not given
Notes: 8-mer, flanks averaged, mean of 2 arrays, mostly near background
Reference: not given
Reading: higher = stronger binding
Quantity: E-score
Residues (chain): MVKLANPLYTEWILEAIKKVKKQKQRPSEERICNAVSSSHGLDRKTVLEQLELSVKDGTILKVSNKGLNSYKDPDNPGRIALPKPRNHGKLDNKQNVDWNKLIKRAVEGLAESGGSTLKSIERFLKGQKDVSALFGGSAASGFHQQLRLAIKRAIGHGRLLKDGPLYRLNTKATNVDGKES
AACCTGTA: -0.126
ATCTTTTA: -0.0455
GAAAGCGA: 0.0667
GATCCCCC: -0.109
ATCGTGGC: -0.0264
ATGGGCCG: 0.116
GGGTATGA: 0.0561
AAATCTGC: -0.112
ATGGTTAC: -0.0567
TGACGCAA: 0.0689
GCAAGTCA: -0.0395
AGTACAGA: -0.0906
CAGAGGTC: -0.0542
AGAAAATA: -0.162
ATAGAATG: -0.0672
AGTGGGGC: -0.18

Some of these lines once more (sample 3):
V121W: 1.06%
R45M: -5.71%
S171N: 31.8%
Q167R: 18.4%
K116F: -7.36%
I162P: -3.31%
R24M: 12.5%
G23M: 0.889%
G107K: 4.82%
P36Q: 9.34%
E139M: 1.17%
